Assay results collected from several papers.
Every numbered part comes from another study and shows a few of its results, in no order. Substitutions count along the parent as printed.

Block 1
Target: Sal-like protein 4, full length isoform A (SALL4, Homo sapiens, UniProt Q9UJQ4, residues 1-1053)
UniProt Q9UJQ4, sequence (whole entry, looked up): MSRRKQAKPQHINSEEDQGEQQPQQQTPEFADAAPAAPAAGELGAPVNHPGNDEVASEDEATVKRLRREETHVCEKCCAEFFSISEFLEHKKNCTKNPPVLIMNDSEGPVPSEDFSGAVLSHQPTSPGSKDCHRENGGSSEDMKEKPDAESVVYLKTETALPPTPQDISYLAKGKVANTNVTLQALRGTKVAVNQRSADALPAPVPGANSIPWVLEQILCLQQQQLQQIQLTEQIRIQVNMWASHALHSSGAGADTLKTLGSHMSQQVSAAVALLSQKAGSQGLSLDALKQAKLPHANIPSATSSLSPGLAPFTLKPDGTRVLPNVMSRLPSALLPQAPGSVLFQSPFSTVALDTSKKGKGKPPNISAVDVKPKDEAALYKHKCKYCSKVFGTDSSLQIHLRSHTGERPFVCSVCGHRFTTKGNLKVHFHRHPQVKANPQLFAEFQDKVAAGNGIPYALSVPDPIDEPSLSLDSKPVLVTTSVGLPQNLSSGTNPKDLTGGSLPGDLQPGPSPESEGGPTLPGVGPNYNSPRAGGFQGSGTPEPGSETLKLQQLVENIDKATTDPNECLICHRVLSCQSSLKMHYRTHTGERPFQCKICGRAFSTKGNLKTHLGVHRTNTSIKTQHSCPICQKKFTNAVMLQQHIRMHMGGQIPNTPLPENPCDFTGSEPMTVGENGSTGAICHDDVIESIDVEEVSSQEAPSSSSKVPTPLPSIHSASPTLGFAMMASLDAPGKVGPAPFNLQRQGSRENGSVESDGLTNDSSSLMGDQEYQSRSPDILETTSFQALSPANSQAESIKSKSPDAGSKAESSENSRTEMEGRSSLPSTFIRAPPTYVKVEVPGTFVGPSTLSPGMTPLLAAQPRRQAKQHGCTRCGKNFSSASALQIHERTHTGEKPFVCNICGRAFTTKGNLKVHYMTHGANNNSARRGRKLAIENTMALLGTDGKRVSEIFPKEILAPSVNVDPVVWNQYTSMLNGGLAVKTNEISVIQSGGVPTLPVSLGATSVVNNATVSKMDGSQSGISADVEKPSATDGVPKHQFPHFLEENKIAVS
Method: universal PBM
Molecule type: double-stranded DNA, one strand shown
Matrix: in vitro
Tested at: 600 nM
Setting: 8-mer, flanks averaged, mean of replicates
Direction: higher = stronger binding
Sequence	E-score
CGCTACCA	-0.156
CAAGGACC	-0.189
AGCTTCCA	-0.1
AAATCTCA	0.129
AATTGGAG	0.101
AAGAGCAC	-0.0591
CGTCTAGC	-0.0398
GAGCTACA	-0.0531
ACCCGAGC	-0.144
GTCAGAGA	-0.0274
CCTAGGAC	-0.168
CTGTGCCA	-0.139
ATTACCGA	0.115
CACATCTG	-0.0436
CGGACAGC	-0.147
ATGAGCAG	0.0538
AGCCATCA	-0.046
AAGCGAAA	0.121
ATGCCAGG	-0.275
CGGGGGAG	-0.276
CAACCCCG	-0.348
TATTTTGA	0.328
ATCTGAAA	0.203
CGCGGCCC	-0.422
TAATTGGA	0.176

Block 2
Target: CCNF, cyclin fold, Cln2 fusion (human)
Method: yeast growth competition, sequencing
Matrix: yeast
Setting: strong parent motif
Baseline: not given
Direction: higher = stronger binding
Starting sequence: GMNC docking peptide (human); KNAKRNLSSEFAN
Variant	normalised enrichment score
KNAKRNLSSEFMN [A12M]	0.62
KNAKRNLFSEFAN [S8F]	3.76
KNAKRNLESEFAN [S8E]	1.28
KNAKRNFSSEFAN [L7F]	0.596
KNAKRNLSSENAN [F11N]	-0.323
KNKKRNLSSEFAN [A3K]	0.732
KNAKRFLSSEFAN [N6F]	0.61
KNAKRNLSSEFPN [A12P]	0.624
KNAKRNLSSEFEN [A12E]	1.11
KNAQRNLSSEFAN [K4Q]	0.816
KNAKRILSSEFAN [N6I]	0.223
KNAKRNLSSEDAN [F11D]	0.355
KNFKRNLSSEFAN [A3F]	0.72
KGAKRNLSSEFAN [N2G]	0.478
KNAKPNLSSEFAN [R5P]	0.12
KNAKRNLSSWFAN [E10W]	1.61
KNAKRNLSSEHAN [F11H]	0.212
KNAKRNQSSEFAN [L7Q]	0.31
KMAKRNLSSEFAN [N2M]	0.506
KWAKRNLSSEFAN [N2W]	0.545
KNAKRNLSSESAN [F11S]	0.293
KNACRNLSSEFAN [K4C]	1.28
KNAKRNLSSEPAN [F11P]	-0.155
KNAKLNLSSEFAN [R5L]	0.505
KNAKRNLSSQFAN [E10Q]	0.972

Block 3
Target: ABI1, truncated, D143A, DHFR fusion (Arabidopsis thaliana)
Method: DHFR PCA, deep sequencing
Matrix: yeast
Setting: methotrexate growth selection, single substitutions
Together with: (+)-ABA 17 µM
Baseline: wild-type fitted maximum
Direction: higher = stronger binding
Starting sequence: PYL1, truncated, DHFR fusion (Arabidopsis thaliana); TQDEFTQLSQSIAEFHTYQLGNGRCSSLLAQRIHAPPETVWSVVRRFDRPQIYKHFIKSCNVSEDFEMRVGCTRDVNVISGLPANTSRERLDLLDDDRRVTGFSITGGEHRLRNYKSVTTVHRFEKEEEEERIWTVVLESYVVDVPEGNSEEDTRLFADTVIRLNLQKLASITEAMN; partner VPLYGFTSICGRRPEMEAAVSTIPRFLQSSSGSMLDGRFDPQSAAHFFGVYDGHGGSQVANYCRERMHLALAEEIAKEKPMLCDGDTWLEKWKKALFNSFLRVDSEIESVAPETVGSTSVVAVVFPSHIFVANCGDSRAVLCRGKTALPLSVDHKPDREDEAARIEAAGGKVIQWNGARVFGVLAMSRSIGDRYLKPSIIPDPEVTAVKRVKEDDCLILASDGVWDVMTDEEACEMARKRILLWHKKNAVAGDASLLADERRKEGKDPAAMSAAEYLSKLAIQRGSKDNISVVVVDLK
Variant	relative binding score
L91V	-10.5%
I133V	101%
T39S	71.5%
I52R	77.3%
D75Q	86.3%
K58T	58.6%
I105H	7.81%
N165W	-3.43%
R69F	55.6%
D75W	81.8%
T160R	44.5%
Q51I	3.79%
L156I	91.2%

Block 4
Target: Interferon regulatory factor 7, full length, phosphomimetic (IRF7, Homo sapiens, UniProt Q92985, residues 1-503, S101K/S471D/S472D/S475D/S476D/S477D/S483D/S484D/S487D)
UniProt Q92985, sequence (whole entry, unmodified, looked up): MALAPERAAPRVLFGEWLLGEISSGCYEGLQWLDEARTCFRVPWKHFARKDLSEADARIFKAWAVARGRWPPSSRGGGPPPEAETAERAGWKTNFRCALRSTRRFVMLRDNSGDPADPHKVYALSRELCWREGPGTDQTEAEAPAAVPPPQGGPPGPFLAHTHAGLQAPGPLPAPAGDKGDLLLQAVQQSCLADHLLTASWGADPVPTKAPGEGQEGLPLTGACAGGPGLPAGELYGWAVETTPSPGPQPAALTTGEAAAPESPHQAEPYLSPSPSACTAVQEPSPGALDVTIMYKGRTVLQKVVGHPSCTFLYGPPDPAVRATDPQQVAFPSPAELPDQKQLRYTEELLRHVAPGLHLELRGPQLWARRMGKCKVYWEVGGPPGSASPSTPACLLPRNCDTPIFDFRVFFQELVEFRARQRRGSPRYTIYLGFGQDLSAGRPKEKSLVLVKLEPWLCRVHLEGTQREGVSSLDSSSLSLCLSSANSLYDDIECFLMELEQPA
Method: protein-binding microarray
Molecule type: double-stranded DNA, one strand shown
Matrix: in vitro
Tested at: 250 nM
Setting: 60-bp whole probe
Together with: salmon DNA 0.4 mg/ml
Baseline: random background probes
Direction: higher = stronger binding
Constant ends, left off below: GCCTAGCAC … GTCTTGATTCGCTTGACGCTGCTG
Sequence	log fluorescence
TTACAACTGGGGTTTCGATTAGTGCTA	5.7 z-score
GACGATTTCAGTCACGAGACGTGCTAG	0.123 z-score
TCACTTTACACACATCATCTTGTGCTA	1.59 z-score
GACGGACTGGACTATCGGGATGTGCTA	-0.762 z-score
TTAGATCGCAGACTGGATTAGTGCTAG	-0.255 z-score
GAGCCCGGGGTGTAAGCAACGTGCTAG	-0.983 z-score
TGGTGTCTCTGGCCTGGGTCGGTGCTA	-0.731 z-score
GACTGTTTCGGTTTCGGGACGTGCTAG	10.7 z-score
GAGGGACTGGACACTGGGGACGTGCTA	-0.666 z-score
GACGATTTCAGTTCCGAGAAGTGCTAG	0.705 z-score
TAAGATTTCAGACTGGATTAGTGCTAG	0.336 z-score

Block 5
Target: RING finger protein unkempt homolog, zinc fingers 1-6, GST-SBP tag (UNK, Homo sapiens, UniProt Q9C0B0, residues 30-357)
UniProt Q9C0B0, sequence (30-357, looked up): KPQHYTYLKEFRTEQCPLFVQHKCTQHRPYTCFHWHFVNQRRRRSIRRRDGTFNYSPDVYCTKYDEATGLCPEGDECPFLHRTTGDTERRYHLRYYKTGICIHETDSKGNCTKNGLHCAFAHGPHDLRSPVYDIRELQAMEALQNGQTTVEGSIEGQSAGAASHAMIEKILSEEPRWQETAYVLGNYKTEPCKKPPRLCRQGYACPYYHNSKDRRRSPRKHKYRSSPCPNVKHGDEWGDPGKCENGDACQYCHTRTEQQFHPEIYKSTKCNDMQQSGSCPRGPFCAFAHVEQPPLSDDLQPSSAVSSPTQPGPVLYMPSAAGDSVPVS
Method: RNA Bind-n-Seq
Molecule type: RNA
Matrix: in vitro
Tested at: not given
Setting: RNA with constant flanks, human and mouse sites, ends assumed
Baseline: input RNA pool
Direction: higher = stronger binding
Constant ends, left off below: GGGAGUUCUACAGUCCGACGAUC … CAACAGAGGAUUGAGCAUCA
Sequence	bound/input enrichment [ratio]
UGUUACACACAGGUUAAAGUAGUAAAAUUUUCCUAUAUGUGGACCAUUAAUAACUUCAGUUUUUGUCGAGAGGAAAUGGGUGAAGUGUUAAAAAGUUCAACAUUUUCAUCUGGCCCAAGU	0.479
UUUGCCUUGCCUGAAGAAGGACCGCGUGGAGAUGAGAGGGAGGAGAUUGUCCACAUUGUUGAGGAAGAAGUCGUUGAGGAAGAGGAGGAAGUCCAAGAUGAAGAAGUCCAAAGUCAGUCU	0.177
CGCUAUUGUGUUUCAACAAGAGACUUGCCCUCCCUGUUGUCUUCCACUGUACAUGCUGUAUAUAGGGGUCACGUGAUGCCGCUGAAGACAAGAAUAAACUGGAGUAGAUUAGUUUGCUGU	0.269
CUAGAGAGAGCCUUCCAGUCUCAAAGAACGCCUGGGAACCAAACGCCUUCCCCUAGAAAUACUUCUGCAUCUGCACUGUCAGCCAGGCCAAAGCACAGCAAACCAAAGCUUCCUGUGAAA	0.926
GAACCACCUUCGAAUGAAACACCUUCCUCCACAGAAACAUCUGCUAUUCCUGAGGAGGAAAUAGACUGGAUAGAGAAACAUUGUGUUAAGAUAAACAACGAUCUUCUAAUUUCCAAGGUC	0.197
AAGGAUUGUAAAUCCUAUAGUGUGGGUGUAGCAUAUAAAACUUUAGGAAAAUUUGAUCAGUUAGGAAAGACAAAUACUAGUUGGUGCGUUCACGUCAACAGCUGGUUACAGAACACAUUU	64.7
UAUUGUACCUCUACUCUGCGUCACUUCUUGCCUCUGUUAGAAAAAAGUCAAGGAGAAGAUGUAGAAGAUGACCACAGAGCAGAACUGCUAAAACAGCUGGGAGACUACAGGUUCUCUGGA	0.23
UCUGCCAUUAAAGGACUCAAACCUAAUGCAAUUUACCUUUUCCUUGUGAGGGCAGCUAAUGCAUAUGGAAUUAGUGAUCCAAGCCAAAUAUCAGAUCCAGUGAAAACACAAGAUGUCCUA	0.181
CCCAGUUGUGACAUGAUGGAACUAAGGCGCCGUUAUCAGAACUUAUAUAUUCCUAGUGACUUUUUUGAUGCUCAGUUUACAUGGGUGGAUGCUUUCCCUUUGUCAAGACCAUUUCAACUG	6.02
CUUAUAGUCUAUGGUAGUUUCAGGUCUCUUAAUAUGGACUUUGAAAACCAAGAUAAGGAGAAAGACAGCAACAGUUCUUCUGGCUCUUUCAAUGGCAACAGCACCAAUAACAGCAUCCAG	0.153
UGGACUCACGUUGGACCUACUCCUGCGAUAACUAUUAAGGAAACAGUUGCCAACCACUUGUAGUUACAAAACCAAACCUGGGACAUACUUACUUCGCAGGUAUAAAGCCUCAGUUUUAAC	0.245

Block 6
Target: Ras GTPase-activating protein-binding protein 1, full length (G3BP1, Homo sapiens, UniProt Q13283)
UniProt Q13283, sequence (whole entry, looked up): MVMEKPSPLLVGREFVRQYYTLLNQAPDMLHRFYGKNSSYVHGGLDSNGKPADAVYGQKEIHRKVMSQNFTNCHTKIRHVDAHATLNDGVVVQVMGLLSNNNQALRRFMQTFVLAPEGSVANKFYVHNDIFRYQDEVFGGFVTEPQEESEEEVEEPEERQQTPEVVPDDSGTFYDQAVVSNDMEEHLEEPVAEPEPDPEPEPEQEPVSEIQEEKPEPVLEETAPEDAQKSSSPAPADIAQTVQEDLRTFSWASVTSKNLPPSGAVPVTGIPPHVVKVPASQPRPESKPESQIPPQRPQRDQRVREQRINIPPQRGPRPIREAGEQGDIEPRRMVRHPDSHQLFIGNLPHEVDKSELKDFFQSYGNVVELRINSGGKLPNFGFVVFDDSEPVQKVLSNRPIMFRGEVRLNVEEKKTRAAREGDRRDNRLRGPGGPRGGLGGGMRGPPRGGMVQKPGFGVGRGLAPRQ
Method: RNA Bind-n-Seq
Molecule type: RNA
Matrix: in vitro
Tested at: 200 nM
Setting: whole 134-nt RNA, ends assumed
Together with: 150 mM LiCl
Baseline: input library
Direction: higher = stronger binding
Each molecule: 7-deaza-guanosine replaces G
Constant ends, left off below: GGGAGUUCUACAGUCCGACGAUC … UGGAAUUCUCGGGUGUCAAGG
Sequence	log2 enrichment
CAAGUCCUGUGCUACACAUCGUAUGUACCGAAUCGGGAAAGGGUUUUUGGGUGGGAAAGUAUUAUGUUACGCCGUUCGGAUCUGCACUUC	-0.0166
UCCUGUGCUACACAUCGUAUGUACCGAAUCGGGCCCCCCGGCCCCCCGGGCCCCCCGGGAAAGUAUUAUGUUACGCCGUUCGGAUCUGCA	-0.284
GUCCUGUGCUACACAUCGUAUGUACCGAAUCGGGGAAAAAAAGGGGAAAGGGGUGGGGAAAGUAUUAUGUUACGCCGUUCGGAUCUGCAC	-0.916
UCCUCAAGUCCUGUGCUACACAUCGUAUGUACCGAAUCGGGGCGGGCGGCGGAAAGUAUUAUGUUACGCCGUUCGGAUCUGCACUUCCAG	0.072
UCCUGUGCUACACAUCGUAUGUACCGAAUCGGAAAAAAGGGGAAAAAAGGAAAAAAGGGGAAAGUAUUAUGUUACGCCGUUCGGAUCUGC	-0.358
GUCCUGUGCUACACAUCGUAUGUACCGAAUCAAAUUUUUUUAAAUUUUUAAACCCAAAAAAGUAUUAUGUUACGCCGUUCGGAUCUGCAC	-0.321
AGUCCUGUGCUACACAUCGUAUGUACCGAAUCGGAAAAAGGGGAAAAAGGAAAAAGGAAAGUAUUAUGUUACGCCGUUCGGAUCUGCACU	-1.05
UCCUCAAGUCCUGUGCUACACAUCGUAUGUACCGAAUCGGCGGGGCGGCGGGAAAGUAUUAUGUUACGCCGUUCGGAUCUGCACUUCCAG	1.14
UGGCCCUGGUGGCAUGCGGGGAGGUAGAGGUGGCCUCAUGGAUCGUGGUGGUCCCGGUGGAAUGUUCAGAGGUGGCCGUGGUGGAGACAG	0.357
CAAGUCCUGUGCUACACAUCGUAUGUACCGAAUCGGGGAAAGGGAAAGGGGAAAGGAAAGUAUUAUGUUACGCCGUUCGGAUCUGCACUU	-0.712
UAACUUUAGAGGAGGAUCUGAUGGAUAUGGCAGUGGACGUGGAUUUGGGGAUGGCUAUAAUGGGUAUAGAGGAGGACCUGGAGGUGGCAA	0.0344

Repeated from above (block 4):
Sequence	log fluorescence
GAGCCCGGGGTGTAAGCAACGTGCTAG	-0.983 z-score
TGGTGTCTCTGGCCTGGGTCGGTGCTA	-0.731 z-score
GACTGTTTCGGTTTCGGGACGTGCTAG	10.7 z-score
GAGGGACTGGACACTGGGGACGTGCTA	-0.666 z-score
GACGATTTCAGTTCCGAGAAGTGCTAG	0.705 z-score
TAAGATTTCAGACTGGATTAGTGCTAG	0.336 z-score
